Published values gathered from unrelated publications.
Each line is one published result; not all experiments were run side by side. ± marks the error that the study gave.
CTSD: Cathepsin D (CTSD, Homo sapiens, UniProt P07339)
Sequence of UniProt P07339 (whole entry, looked up): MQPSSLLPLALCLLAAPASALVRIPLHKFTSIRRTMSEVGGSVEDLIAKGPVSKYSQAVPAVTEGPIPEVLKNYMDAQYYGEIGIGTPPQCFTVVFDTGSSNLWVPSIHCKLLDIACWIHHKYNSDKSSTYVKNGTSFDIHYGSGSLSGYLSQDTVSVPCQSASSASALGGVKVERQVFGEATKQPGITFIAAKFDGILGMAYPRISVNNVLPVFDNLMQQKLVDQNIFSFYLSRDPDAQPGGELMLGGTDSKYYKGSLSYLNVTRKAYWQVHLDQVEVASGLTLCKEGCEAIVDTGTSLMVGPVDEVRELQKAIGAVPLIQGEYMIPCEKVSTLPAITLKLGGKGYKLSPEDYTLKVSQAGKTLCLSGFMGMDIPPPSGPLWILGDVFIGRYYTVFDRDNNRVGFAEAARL
CYP3A4: Cytochrome P450 3A4 (CYP3A4, Homo sapiens, UniProt P08684)
Sequence of UniProt P08684 (whole entry, looked up): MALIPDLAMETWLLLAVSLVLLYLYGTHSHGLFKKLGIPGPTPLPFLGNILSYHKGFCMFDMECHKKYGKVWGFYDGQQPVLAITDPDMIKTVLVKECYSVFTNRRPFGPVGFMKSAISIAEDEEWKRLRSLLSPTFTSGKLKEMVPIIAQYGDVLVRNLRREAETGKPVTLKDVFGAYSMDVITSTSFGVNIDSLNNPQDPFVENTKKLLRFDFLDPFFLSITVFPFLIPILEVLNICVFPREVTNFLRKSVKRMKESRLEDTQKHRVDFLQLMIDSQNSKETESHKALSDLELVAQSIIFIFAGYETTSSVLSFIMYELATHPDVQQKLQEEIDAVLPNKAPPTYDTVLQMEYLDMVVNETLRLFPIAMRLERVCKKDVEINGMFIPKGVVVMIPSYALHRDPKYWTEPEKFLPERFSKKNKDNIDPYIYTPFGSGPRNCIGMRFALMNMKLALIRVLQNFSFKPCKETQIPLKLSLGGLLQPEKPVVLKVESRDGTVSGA
Sequence of UniProt Q12809 (whole entry, looked up): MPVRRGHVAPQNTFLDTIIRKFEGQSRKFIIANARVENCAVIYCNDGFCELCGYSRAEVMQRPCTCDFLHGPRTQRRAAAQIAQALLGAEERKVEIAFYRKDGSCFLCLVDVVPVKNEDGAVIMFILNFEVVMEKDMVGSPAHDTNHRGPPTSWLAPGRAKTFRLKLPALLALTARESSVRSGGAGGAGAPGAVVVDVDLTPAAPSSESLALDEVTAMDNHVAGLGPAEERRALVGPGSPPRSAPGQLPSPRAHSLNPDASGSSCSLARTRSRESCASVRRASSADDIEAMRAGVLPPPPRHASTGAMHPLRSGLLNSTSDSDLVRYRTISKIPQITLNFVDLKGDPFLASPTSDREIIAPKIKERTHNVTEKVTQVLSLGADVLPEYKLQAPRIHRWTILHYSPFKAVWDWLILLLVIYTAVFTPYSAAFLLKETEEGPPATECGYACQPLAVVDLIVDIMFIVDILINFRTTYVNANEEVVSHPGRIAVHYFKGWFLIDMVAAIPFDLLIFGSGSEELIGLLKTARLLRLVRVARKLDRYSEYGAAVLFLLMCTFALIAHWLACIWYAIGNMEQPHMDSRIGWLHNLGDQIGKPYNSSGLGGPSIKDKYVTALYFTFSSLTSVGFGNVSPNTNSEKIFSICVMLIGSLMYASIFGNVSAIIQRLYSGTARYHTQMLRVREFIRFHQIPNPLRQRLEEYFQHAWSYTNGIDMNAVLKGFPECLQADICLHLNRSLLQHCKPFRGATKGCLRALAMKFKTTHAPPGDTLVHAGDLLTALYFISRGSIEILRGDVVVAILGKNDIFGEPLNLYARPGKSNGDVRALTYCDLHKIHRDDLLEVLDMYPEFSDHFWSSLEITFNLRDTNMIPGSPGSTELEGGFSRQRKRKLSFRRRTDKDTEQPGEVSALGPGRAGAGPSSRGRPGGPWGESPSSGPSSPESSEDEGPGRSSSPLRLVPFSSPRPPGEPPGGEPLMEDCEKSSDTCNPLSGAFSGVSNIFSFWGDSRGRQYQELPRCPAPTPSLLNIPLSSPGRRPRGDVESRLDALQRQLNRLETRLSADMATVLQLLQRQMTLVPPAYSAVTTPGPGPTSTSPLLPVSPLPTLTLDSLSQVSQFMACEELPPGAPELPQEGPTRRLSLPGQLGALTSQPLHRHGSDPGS
Sequence of UniProt Q16696 (whole entry, looked up): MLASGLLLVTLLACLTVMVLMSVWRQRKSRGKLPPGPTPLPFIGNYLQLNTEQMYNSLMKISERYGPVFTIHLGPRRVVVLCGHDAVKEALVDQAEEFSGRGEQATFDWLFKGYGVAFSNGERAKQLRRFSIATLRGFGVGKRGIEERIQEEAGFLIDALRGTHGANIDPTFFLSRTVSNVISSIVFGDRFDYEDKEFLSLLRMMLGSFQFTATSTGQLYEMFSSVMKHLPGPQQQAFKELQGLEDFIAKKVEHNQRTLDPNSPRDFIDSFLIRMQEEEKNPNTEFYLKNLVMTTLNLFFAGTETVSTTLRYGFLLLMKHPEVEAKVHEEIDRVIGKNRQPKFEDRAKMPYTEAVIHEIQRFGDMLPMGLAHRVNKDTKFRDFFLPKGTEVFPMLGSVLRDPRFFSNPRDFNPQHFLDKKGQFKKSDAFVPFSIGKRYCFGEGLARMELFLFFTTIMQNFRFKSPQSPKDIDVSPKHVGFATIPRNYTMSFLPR
Sequence of UniProt P08253 (whole entry, looked up): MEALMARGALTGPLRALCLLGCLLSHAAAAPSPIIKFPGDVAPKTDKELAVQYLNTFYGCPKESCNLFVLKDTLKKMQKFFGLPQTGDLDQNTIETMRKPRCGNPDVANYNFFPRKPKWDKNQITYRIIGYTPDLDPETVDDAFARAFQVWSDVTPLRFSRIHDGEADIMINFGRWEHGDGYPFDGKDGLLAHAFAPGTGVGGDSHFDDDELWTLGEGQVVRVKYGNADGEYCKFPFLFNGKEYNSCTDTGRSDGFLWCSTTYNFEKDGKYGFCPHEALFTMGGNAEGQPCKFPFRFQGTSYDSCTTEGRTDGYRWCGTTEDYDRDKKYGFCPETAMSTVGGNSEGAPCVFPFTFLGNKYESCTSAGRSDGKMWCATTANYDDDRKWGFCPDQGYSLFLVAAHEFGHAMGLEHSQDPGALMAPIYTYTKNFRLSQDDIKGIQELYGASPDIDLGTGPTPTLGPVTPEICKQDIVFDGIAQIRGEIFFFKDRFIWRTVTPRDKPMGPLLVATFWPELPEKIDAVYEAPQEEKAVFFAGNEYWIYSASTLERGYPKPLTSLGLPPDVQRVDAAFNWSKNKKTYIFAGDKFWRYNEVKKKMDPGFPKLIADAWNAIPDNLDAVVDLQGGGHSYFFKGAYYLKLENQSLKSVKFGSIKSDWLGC

With `Cc1oc2ccccc2c1Cc1cc(I)c(OCC(=O)O)c(I)c1` the current was 264 ± 2% (KCNH2 (Homo sapiens, UniProt Q12809); potassium current, whole-cell patch clamp, item: plateau current; HEK293 expressing hERG1; 10 µM, repetitive pulsing to -20 mV, 4 mM K+; relative to: control).
The dissociation half-life of `CC(C)CC(=O)N[C@H](C(=O)N[C@H](C(=O)N[C@@H](CC(C)C)[C@@H](O)CC(=O)N[C@@H](C)C(=O)N[C@@H](CC(C)C)[C@@H](O)CC(=O)NCCOCCOCCC(=O)NCCCC[C@H](NC(=O)CN1CCN(CC(=O)O)CCN(CC(=O)O)CC1)C(=O)O)C(C)C)C(C)C` is reported as 1.52 min (CTSD; SPR).
With `COc1cc2c(c(OC)c1OC)-c1c(cc3c(c1OC)OCO3)[C@H](OC(=O)c1ccccc1)[C@@](C)(O)[C@@H](C)C2` the IC50 ratio was 4.3 (human recombinant CYP3A4 and CYP3A5; item: oxidized nifedipine; 15 min, pH 7.4, together with: nifedipine 20 µM; relative to: CYP3A4 over CYP3A5).
`CC[C@H]1[C@@H](O)[C@@H]2[C@H](CC[C@]3(C)[C@@H]([C@H](C)CCNC(=O)NS(=O)(=O)c4ccc(C(C)(C)C)cc4)CC[C@@H]23)[C@@]2(C)CC[C@@H](O)C[C@@H]12` has a Tmax median of 275 min (CYP3A4; human, plasma; dose not given, together with: fluconazole).
The inhibition of `CC(C)=CCc1c(O)cc(O)c2c1O[C@H](c1ccc(O)cc1)CC2=O` is reported as < 10% (human CYP3A4; 1 µM, pH 7.4).
`C=CC(=O)Nc1cc(Nc2nccc(Nc3cc(Cl)c(F)cc3C(C)(C)O)n2)c(OC)cc1N1CC[C@@H](N(C)C)C1` has an efflux ratio of 14.1 ± 7 (MDR1 and BCRP; MDCKII-MDR1-BCRP; 1 µM, 2 h, pH 7.4).
`C[C@H]1CN(C2COC2)CCN1c1ccc(Nc2cc(-c3ccnc(N4CCn5c(cc6c5CC(C)(C)C6)C4=O)c3CO)cn(C)c2=O)nc1` gave a remaining compound of 97.5 ± 11.5% (human liver microsomes CYP; human liver microsomes; 1 µM, 60 min, pH 7.4, together with: no NADPH; relative to: 0 min).
`CC(C)=CCc1c(O)cc2c(c1O)C(=O)C[C@@H](c1ccc(O)cc1)O2` has an inhibition of < 10% (human CYP3A4; 1 µM, pH 7.4).
The cell viability of `COc1c(O[C@@H]2O[C@H](CO)[C@@H](O)[C@H](O)[C@H]2O)cc2c(c1O)C(=O)c1c(cc(C)c(O)c1OC)C2=O` is reported as 94 ± 4.69% (HK-2 co-cultured with HepaRG; MTT; 33.33 µM, 24 h; relative to: untreated control).
For `C#C[C@]1(O)CC[C@H]2[C@@H]3CCC4=CC(=NO)CC[C@@H]4[C@H]3CC[C@@]21CC` (mixture of isomers), “unbound fraction in microsomes” read 1 (human CYP3A4; retrograde calculation; microsomal incubation).
`CCCCC1=NC2(CCCC2)C(=O)N1Cc1ccc(-c2ccccc2S(=O)(=O)Nc2noc(C)c2C)c(COCC)c1` has a Hill coefficient of 1.57 (CYP2C19; enzyme induction, inducer; human).
For `COc1ccc2[nH]c([S+]([O-])Cc3ncc(C)c(OC)c3C)nc2c1` (centres unmarked), “relative enzyme activity” read 87.5 (CYP1A2 human; inducer; hepatocytes lot LTG; 100 µM; relative to: DMSO).
Under “aminopyrine N-demethylase activity”, `O=C(/C=C/c1cccnc1)NCCCCC1CCN(C(=O)c2ccccc2)CC1` is recorded as 3.54 nmol/min/mg (rat cytochrome P450; inhibitor; rat liver microsomes; 100 µM, 15 min, pH 7.4, together with: aminopyrine 2 mM).
The efflux ratio of `CN1C[C@@H]2C[C@H]1CN2c1cc2c(cc1F)c(=O)c(C(=O)O)cn2C1CC1` is reported as 12.3 ± 4.77 (ovine ABCG2; transepithelial transport; MDCK-II transduced with ovine ABCG2; 10 µM, 4 h; relative to: B-A over A-B).
`O=C(Nc1c2c(cc3c1CCC3)CCC2)NS(=O)(=O)/C=C/c1nccs1` has an inhibition of 0.6% (human CYP3A4; human liver microsomes; 2 µM, pH 7.4, together with: testosterone).
For `CC(=O)c1c(C)cc2cc(O)cc(O[C@@H]3O[C@H](CO)[C@@H](O)[C@H](O)[C@H]3O)c2c1O`, the cell viability was 107 ± 8.07% (HK-2 co-cultured with HepaRG; MTT; 266.67 µM, 24 h; relative to: untreated control).
For `COc1ccc(-c2cc(=O)c3c(O)cc(O)cc3o2)cc1OC`, the IC50 was > 200 µM (Cytochrome P450 2A13 (Homo sapiens, UniProt Q16696); enzyme activity, inhibitor; together with: 10 µM coumarin).
`CC(C)C[C@H](NC(=O)CNC(=O)[C@H](C)NC(=O)[C@H](CC(C)C)NC(=O)[C@H](CC(N)=O)NC(=O)[C@H](Cc1c[nH]c2ccccc12)NC(=O)[C@@H](NC(=O)[C@H](Cc1ccc(O)cc1)NC(=O)[C@H](Cc1ccc(O)cc1)NC(=O)[C@H](CO)NC(=O)[C@H](CCCNC(=N)N)NC(=O)[C@H](Cc1c[nH]cn1)NC(=O)[C@@H](N)Cc1c[nH]c2ccccc12)[C@@H](C)O)C(=O)N[C@H](C(=O)NCC(=O)N[C@@H](CCCCN)C(=O)O)C(C)C` — result for “nonspecific cleavage products”: < 5% (MMP2 (Homo sapiens, UniProt P08253); substrate, LC-MS; concentration not given, 48 h, 37 °C).
`CC(C)CC(=O)N[C@H](C(=O)N[C@H](C(=O)N[C@@H](CC(C)C)[C@@H](O)CC(=O)N[C@@H](C)C(=O)N[C@@H](CC(C)C)[C@@H](O)CC(=O)NCCOCCC(=O)NCCCC[C@H](NC(=O)CN1CCN(CC(=O)O)CCN(CC(=O)O)CC1)C(=O)O)C(C)C)C(C)C` has a dissociation half-life of 15.5 min (CTSD; SPR).
`Cc1cc(Nc2ncnc3ccc(NC4=NC(C)(CO)CO4)cc23)ccc1Oc1ccn2ncnc2c1` (centres unmarked) — result for “AUC(0-t) (geometric mean)”: 0.754 µg·h/mL (CYP3A4; human, plasma; tucatinib, day 6, together with: itraconazole).

Some of these lines once more:
The cell viability of `COc1c(O[C@@H]2O[C@H](CO)[C@@H](O)[C@H](O)[C@H]2O)cc2c(c1O)C(=O)c1c(cc(C)c(O)c1OC)C2=O` is reported as 94 ± 4.69% (HK-2 co-cultured with HepaRG; MTT; 33.33 µM, 24 h; relative to: untreated control).
